Results pooled from the literature.
Each numbered part is a random draw from the data of one study; scales do not carry over between parts.

Series 1
Target: Max-binding protein MNT, bHLH-zipper, MAX partner unstated (MNT, Homo sapiens, UniProt Q99583, residues 220-300)
Method: protein-binding microarray
Molecule type: double-stranded DNA, one strand shown
Matrix: in vitro
Tested at: not given
Setting: k-mer, scored over probes, only values ≥0.25
Direction: higher = stronger binding
Endpoint: E-score
Residues (chain): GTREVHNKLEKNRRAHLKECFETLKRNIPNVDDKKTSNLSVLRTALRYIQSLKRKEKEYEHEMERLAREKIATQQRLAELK
CGTGGGCC: 0.305
CATGCACC: 0.382
CATGTCCA: 0.293
ACGTGTGA: 0.405
CGTGCTTC: 0.364
CACGCGCA: 0.455

Series 2
Target: RING finger protein unkempt homolog, zinc fingers 1-6, GST-SBP tag (UNK, Homo sapiens, UniProt Q9C0B0, residues 30-357)
Method: RNA Bind-n-Seq
Molecule type: RNA
Matrix: in vitro
Tested at: not given
Setting: RNA with constant flanks, human and mouse sites, ends assumed
Relative to: input RNA pool
Direction: higher = stronger binding
Endpoint: bound/input enrichment
Constant ends, left off below: GGGAGUUCUACAGUCCGACGAUC … CAACAGAGGAUUGAGCAUCA
Residues (chain): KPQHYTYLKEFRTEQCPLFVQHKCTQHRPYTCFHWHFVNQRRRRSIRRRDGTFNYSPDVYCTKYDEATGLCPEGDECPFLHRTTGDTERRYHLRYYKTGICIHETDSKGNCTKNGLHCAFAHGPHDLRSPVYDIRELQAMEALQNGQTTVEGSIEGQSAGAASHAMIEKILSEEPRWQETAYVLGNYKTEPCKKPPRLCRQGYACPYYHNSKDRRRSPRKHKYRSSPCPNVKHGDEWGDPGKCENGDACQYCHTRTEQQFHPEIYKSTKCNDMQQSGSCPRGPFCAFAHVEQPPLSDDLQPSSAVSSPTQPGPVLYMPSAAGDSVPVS
GAGGGGGUGGAGUUAAUGGAGCCACUGCUGGAACCUGGGCAGGAGCUCGGGGAGACAGCCCUUCAUCUUGCCGUCAGGACCGCAGACCAGACAUCUCUCCAUCUGGUUGAUUUCCUUGUA: 0.087 ratio
AAAUAUAUAAAACUUCAGUGUAAAGGACAUGGUGAGUGCCCUACCACUGAGAAUACUGAGACCUUUAUUCGUCUGUGUGAGCGGUUUAAUGAAAGAAAUCCACCUGAACUUAUAGGUGUU: 0.0733 ratio
AUCAUCUGCAUCGUCACGUACGUGCUGAACUUCCUUCUUCUCAUUAUCAACUACAAACGACUAGUUUACUUGAACGAGGCCUGGAAGCGGCAGCUGCAACCCAAGCAGGACUGACGCCCG: 0.162 ratio
AAUCUCUGGGAACACUAUUAUAAAGAAGGCCAAGCUAUUAUUUUUGUCAUUGAUAGUAGUGAUAGAUUAAGAAUGGUUGUGGCCAAAGAAGAACUCGAUACUCUUCUGAAUCAUCCAGAU: 0.129 ratio
AGAACUCAUGGAAAUAGAAGUGAGUGAAAAUGUGAUACAAGUUCACUUAAAUGGACUCCUGCAGACAAAUGAAAAAAUUGCUCUGAAAGAGAUCACAAGACAAUUAAAUCUAGACAAUGU: 0.419 ratio
GACAUAGUUGGUAUACAUUUUCUGCUUCCAACUCAGCUUUGGUGCGAAUCGAGUGAAACUAGAUAUUGAAUAAGACUUGUCAAUAUCAAACGAUUUUUUUGCUGACUGAAUUUGAAAGGG: 0.29 ratio
ACCCCCUUCGCCGGUACCGGGCUCUUCUUCGGAAAGAUGUCGGACACCGCAGUGGCUGACACUAGGCGCCUUAACUCGAAGCCCCAAGACCUGACCGACGCUUACGGGCCGCCCAGUAAC: 0.227 ratio
AAACCAACCAAUCCAGCUGCUCAGAAAGCUCUUACAACACCUACUCAUUAUAAACUUACACCUCGCCCUGCUACCAGAGUCAGGCCAAAGGCUUUGCAAACAACAGGCACAGCCAAAUCA: 0.3 ratio

Series 3
Target: Replicase polyprotein 1ab, polymerase (rep, Severe acute respiratory syndrome coronavirus 2, UniProt P0DTD1)
Read-out: enzyme activity
Action: inhibitor
Tested at: 20 µM
Endpoint: inhibition
Nc1ccc(S(=O)(=O)Nc2ccnn2-c2ccccc2)cc1: 23.4%
C=CC(=O)Nc1cccc(Oc2nc(Nc3ccc(N4CCN(C)CC4)cc3)nc3ccsc23)c1: 9.86%
O=C(O)[C@H](Cc1ccccc1)NCc1ccc(Cl)cc1: 3.26%
O=C1NC(=O)[C@@]2(CCOc3ccc(F)cc32)N1: -2.04%
Cc1ccc(OC[C@@H](O)[C@H](C)NC(C)C)c2c1CCC2: 2.69%
CC1Nc2ccc(Cl)cc2S(=O)(=O)N1 (stereo not shown): 3.75%
Cc1ccc(NC(=O)C(C)C)cc1C1CCN(Cc2ccc(Oc3ccc(F)c(F)c3)cc2)CC1: 1.91%
c1ccc2c(c1)sc1ccccc12: 9.29%
COc1cc(N)c(Cl)cc1C(=O)NC1CN2CCC1CC2 (stereo not shown): 0.26%
CC(C)C(N)=O: 3.34%
c1ccc(CCNc2nc(-c3ccccc3)cs2)cc1: 4.97%
CN=C(NS(=O)(=O)c1ccc(Cl)cc1)N1C[C@H](c2ccccc2)C(c2ccc(Cl)cc2)=N1 (racemic): -2.23%
NCC(CS(=O)(=O)O)c1ccc(Cl)cc1 (stereo not shown): 3.73%
Cc1cc(C#N)cc(C)c1Oc1nc(Nc2ccc(C#N)cc2)nc(N)c1Br: -1.58%
CO[C@@]1(NC(=O)C2SC(=C(C(N)=O)C(=O)O)S2)C(=O)N2C(C(=O)O)=C(CSc3nnnn3C)CS[C@@H]21 (stereo partly shown): 1.22%
c1ccc(COCCCc2c[nH]cn2)cc1: 1.77%
CC(=O)NO: 4.3%
Cc1c(I)c(=O)n(-c2ccccc2)n1C: 3.25%
OCCN1CCN(CCCN2c3ccccc3Sc3ccc(Cl)cc32)CC1: 0.47%
NC1=NCN([C@H]2C[C@H](O)[C@@H](CO)O2)C(=O)N1: 3.13%
C#C[C@]1(O)CC[C@H]2[C@@H]3CCC4=CC(=NO)CC[C@@H]4[C@H]3CC[C@@]21CC (mixture of isomers): 5.15%
O=c1c(O)c(-c2ccc(O)cc2)oc2cc(O)cc(O)c12: 9.99%
CCOC(=O)c1ccc(O)cc1: -9.97%
NS(=O)(=O)c1ccc(-n2nc(C(F)(F)F)cc2-c2ccc(Cl)cc2)cc1: -2.63%
Cn1c(-c2ccccc2)nnc1S(C)(=O)=O: 2.02%

Series 4
Cell line: HEK-293T/ACE2
Tested at: 10 µM
Time: 16 h
Relative to: vehicle
Endpoint: viability
CC1(C)S[C@@H]2[C@H](NC(=O)Cc3ccccc3)C(=O)N2[C@H]1C(=O)O: 101%
CCCNC(C)C(=O)Nc1c(C)csc1C(=O)OC (stereo not shown): 97%
COc1ccccc1OCC(O)CO (stereo not shown): 96.5%
CC1Cc2ccccc2N1NC(=O)c1ccc(Cl)c(S(N)(=O)=O)c1 (stereo not shown): 103%

Series 5
Target: Sal-like protein 4, full length isoform A (SALL4, Homo sapiens, UniProt Q9UJQ4, residues 1-1053)
Sequence of UniProt Q9UJQ4 (whole entry, looked up): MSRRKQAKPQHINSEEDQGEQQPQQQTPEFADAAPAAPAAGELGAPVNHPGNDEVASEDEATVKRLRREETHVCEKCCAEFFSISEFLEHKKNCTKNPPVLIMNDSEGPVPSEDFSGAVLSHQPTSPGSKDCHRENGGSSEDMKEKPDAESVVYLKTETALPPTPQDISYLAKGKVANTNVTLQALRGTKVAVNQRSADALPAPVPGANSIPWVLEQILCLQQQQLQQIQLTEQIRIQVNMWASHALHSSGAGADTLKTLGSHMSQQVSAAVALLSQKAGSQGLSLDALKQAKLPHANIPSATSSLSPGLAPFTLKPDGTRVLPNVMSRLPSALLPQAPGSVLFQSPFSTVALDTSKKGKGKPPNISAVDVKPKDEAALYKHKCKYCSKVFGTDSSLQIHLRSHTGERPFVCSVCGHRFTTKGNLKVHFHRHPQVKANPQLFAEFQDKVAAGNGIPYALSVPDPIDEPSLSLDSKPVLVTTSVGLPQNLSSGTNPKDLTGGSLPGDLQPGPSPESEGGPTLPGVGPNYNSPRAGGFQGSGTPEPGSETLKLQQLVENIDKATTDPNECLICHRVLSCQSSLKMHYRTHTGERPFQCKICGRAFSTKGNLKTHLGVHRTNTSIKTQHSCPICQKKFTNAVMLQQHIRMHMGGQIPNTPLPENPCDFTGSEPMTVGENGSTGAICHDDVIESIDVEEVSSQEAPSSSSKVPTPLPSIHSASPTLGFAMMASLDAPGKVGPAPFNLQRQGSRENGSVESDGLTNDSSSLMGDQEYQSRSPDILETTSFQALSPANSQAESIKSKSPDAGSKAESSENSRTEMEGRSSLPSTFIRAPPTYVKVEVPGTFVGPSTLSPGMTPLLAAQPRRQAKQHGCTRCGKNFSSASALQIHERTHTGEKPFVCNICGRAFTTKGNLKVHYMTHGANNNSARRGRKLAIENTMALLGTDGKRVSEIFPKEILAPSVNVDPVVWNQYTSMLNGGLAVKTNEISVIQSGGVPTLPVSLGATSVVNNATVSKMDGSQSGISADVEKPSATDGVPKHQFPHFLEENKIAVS
Method: universal PBM
Molecule type: double-stranded DNA, one strand shown
Matrix: in vitro
Tested at: 600 nM
Setting: 8-mer, flanks averaged, mean of replicates
Direction: higher = stronger binding
Endpoint: E-score
GGCTGCCA: -0.25
CAGCAAGC: -0.249
CGTGCTTC: -0.205
GAAGAACC: -0.173
ATGTGGTC: 0.0488
CCAACCAA: -0.159
GCCTACTA: -0.0731
AGCATTGG: 0.0438

Series 6
Target: Replicase polyprotein 1ab, main protease (rep, Severe acute respiratory syndrome coronavirus 2, UniProt P0DTD1)
Read-out: enzyme activity
Action: inhibitor
Tested at: 20 µM
Setting: primary screen
Endpoint: inhibition
CC[C@]12C=CCN3CC[C@@]4(c5cc([C@@]6(C(=O)OC)C[C@@H]7C[C@@H](C(C)(F)F)C[N@](CCc8c6[nH]c6ccccc86)C7)c(OC)cc5N(C)[C@H]4[C@@](O)(C(=O)OC)[C@@H]1OC(C)=O)[C@@H]32: 92%
COc1cc(C(=S)N2CCOCC2)ccc1O: 100%
CC(C)(C)c1cc(O)c(C(C)(C)C)cc1O: 25.9%
O=C(O)c1c(Cl)c(Cl)c(Cl)c(Cl)c1-c1c2cc(I)c(=O)c(I)c-2oc2c(I)c(O)c(I)cc12: 112%
